# Experimental data gathered from unrelated publications.
# Every numbered part comes from another study and shows a few of its results, in no order.

# Block 1 — technique: aptamer microarray, sandwich; form: DNA with 2'F-ANA; sample: in vitro; tested at: 200 nM; added: Cy3 exosite-II aptamer, 400 nM; reading: higher = stronger binding; sequence: GGTTGGTGTGGTTGG
# Target: Prothrombin, mature alpha-thrombin (F2, Homo sapiens, UniProt P00734)
# Setting: whole 15-mer aptamer, many near background
Modification,mean fluorescence intensity
2'F-ANA at 1 2 4 6 7 8 10,49.3 a.u.
2'F-ANA at 1 2 3 4 5 8 12 13 14,47.4 a.u.
2'F-ANA at 2 3 5 8 9 10 11 12 13,81 a.u.
2'F-ANA at 1 3 4 7 8 11 12 14,108 a.u.
2'F-ANA at 1 10 14,45.9 a.u.
2'F-ANA at 3 5 6 8 9 10 14,52.6 a.u.
2'F-ANA at 3 5 7 9 11 15,95 a.u.
2'F-ANA at 1 3 4 5 8 9 11 14,55.1 a.u.

# Block 2 — technique: protein binding microarray; form: double-stranded DNA, one strand shown; sample: in vitro; tested at: not given; baseline: not given; reading: higher = stronger binding
# Target: Histone acetyltransferase KAT6A, winged helix 1, GST fusion (KAT6A, Homo sapiens, UniProt Q92794, residues 1-85)
# Setting: 8-mer, flanks averaged, mean of 2 arrays, mostly near background
# Construct (chain): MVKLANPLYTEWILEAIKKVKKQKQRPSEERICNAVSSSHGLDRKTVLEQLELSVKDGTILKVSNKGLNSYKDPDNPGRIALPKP
Sequence,E-score
CAATTCTG,-0.0859
ATTATAGG,-0.178
GCACTAGC,0.19
CCAAGTTC,-0.151
GCCGTAGC,0.385
GAGTATAA,-0.00859
AGTCAGTG,-0.227
ATGCTACA,-0.157

# Block 3 — technique: protein-binding microarray; form: double-stranded DNA, one strand shown; sample: in vitro; tested at: 0.8 µM; setting: whole 60-bp probe, no competitor; reading: higher = stronger binding; shared flanks, not repeated: … GTCTTGATTCGCTTGACGCTGCTG
# Target: Centromere-binding protein 1, full length, N-terminal tag (CBF1, Saccharomyces cerevisiae, UniProt P17106, residues 1-351)
# Chain of UniProt P17106 (whole entry, looked up): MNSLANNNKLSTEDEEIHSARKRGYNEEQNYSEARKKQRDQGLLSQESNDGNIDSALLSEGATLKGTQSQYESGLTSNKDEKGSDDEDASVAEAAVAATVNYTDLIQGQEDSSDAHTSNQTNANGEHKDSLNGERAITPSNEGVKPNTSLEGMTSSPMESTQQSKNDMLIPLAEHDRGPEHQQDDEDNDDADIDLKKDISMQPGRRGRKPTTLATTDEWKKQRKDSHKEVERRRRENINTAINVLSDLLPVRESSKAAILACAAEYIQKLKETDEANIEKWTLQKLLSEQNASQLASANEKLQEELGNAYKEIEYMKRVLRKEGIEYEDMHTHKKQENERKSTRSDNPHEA
Sequence,fluorescence intensity [a.u.]
CTAACTCTTTTCTTGCACCTGCAGCCTTAGGTCTTC,561
GAAGGAAAAAGGTGTCACGTGATCAGATGGTCTTAG,53500
CTATGTGCCACATATCACGTAATCATATATTGTTTC,566
CTACTGTAGCAATGGAAGCTGATGTACCCCAAATTC,556
CTATTCTTGGTGGACCACGTGCCTTGCTTAAAGTTC,8710
GAACCTGTCCTGTGGAGCCTGATGTAAATCAAATAG,599
CTATCCAGGCTGCGTCACCCGGATTAATGTTGTTTC,527
CCTAACTACTATATGGGCATGACATAGCTTCGTACA,543

# Further values, each from its own experiment
Sequence,target,test,system,conditions,quantity,result
VLRACWNEK,"HLA class I histocompatibility antigen, A alpha chain, allele A*80:01 (Homo sapiens, UniProt P04439)",peptide-MHC binding,peptide,concentration not given,binding,inactive

# A few entries again (block 3):
Sequence,fluorescence intensity [a.u.]
CTATTCTTGGTGGACCACGTGCCTTGCTTAAAGTTC,8710
GAACCTGTCCTGTGGAGCCTGATGTAAATCAAATAG,599
CTATCCAGGCTGCGTCACCCGGATTAATGTTGTTTC,527
CCTAACTACTATATGGGCATGACATAGCTTCGTACA,543
